# Results collected from several papers.
# Values joined by “and” are separate records of one study, mostly repeats; a detail may differ.
# Target: Cannabinoid receptor 1 (CNR1, Homo sapiens, UniProt P21554)
# UniProt P21554, sequence (whole entry, looked up): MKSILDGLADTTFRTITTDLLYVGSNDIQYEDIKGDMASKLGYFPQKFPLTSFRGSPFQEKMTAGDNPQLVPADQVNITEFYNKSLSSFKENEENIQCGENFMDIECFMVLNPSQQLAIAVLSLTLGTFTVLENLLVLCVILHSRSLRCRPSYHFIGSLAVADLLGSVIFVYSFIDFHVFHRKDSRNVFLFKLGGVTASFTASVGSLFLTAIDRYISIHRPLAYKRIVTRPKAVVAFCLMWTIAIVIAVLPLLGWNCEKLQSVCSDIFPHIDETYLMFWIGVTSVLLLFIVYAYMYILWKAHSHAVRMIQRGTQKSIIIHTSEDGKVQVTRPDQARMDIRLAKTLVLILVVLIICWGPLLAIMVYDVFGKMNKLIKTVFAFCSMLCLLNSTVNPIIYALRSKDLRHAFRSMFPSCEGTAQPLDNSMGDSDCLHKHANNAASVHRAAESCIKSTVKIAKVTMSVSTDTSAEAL
Structure (SMILES),assay,test system,conditions,scale,endpoint,value
CCCCCn1cc(C(=O)C2C(C)(C)C2(C)C)c2ccccc21,,,,,Ki,368 nM
CC1=CC[C@@H]2[C@@H](C1)c1c(O)cc(C(C)(C)CCCCCCBr)cc1OC2(C)C,"forskolin-stimulated cAMP accumulation, agonist, HTRF",CHO-K1,,,EC50,0.316 nM
CC1(C)C(C(=O)c2cn(CCCCCF)c3ccccc23)C1(C)C,,,,,Ki,234 nM
COc1cc(Nc2ncc(F)c(Nc3ccc4c(n3)NC(=O)C(C)(C)O4)n2)cc(OC)c1OC,,,,,IC50,> 10000 nM
COc1ncccc1-c1cnn2ccc(N3CCN(C(=O)OC(C)C)CC3)nc12,liability screen,,,,IC50,> 30000 nM
CCCCCCn1c(O)c(N=NC(=O)c2ccccc2)c2ccccc21,agonist,,,,EC50,1490 nM and ~1500 nM
CCCc1cc(O)c2c(c1)OC(C)(CCC=C(C)C)C=C2 (stereo not drawn),binding,,,value is lower limit,Ki,> 1000 nM
COC(=O)[C@@H](NC(=O)c1nn(Cc2ccc(F)cc2)c2ccccc12)C(C)C,"Gαi protein dissociation, agonist",,,,EC50,4 nM
COC(=O)[C@@H](NC(=O)c1nn(Cc2ccc(F)cc2)c2ccccc12)C(C)(C)C,radioligand displacement,,"with NaCl, added: [3H]SR141716",,IC50,26.2 nM

# Excerpt of the above:
Structure (SMILES),assay,test system,conditions,scale,endpoint,value
CCCCCn1cc(C(=O)C2C(C)(C)C2(C)C)c2ccccc21,,,,,Ki,368 nM
